Published values pooled from the literature.
Values joined by “and” are separate records of one study, mostly repeats; a detail may differ. ± gives the spread as reported.
Method: steady-state kinetics
B1: enzyme N249W (Thermobifida fusca, UniProt Q47RK4); chain MTDVYILDAVRTPFGRYGGALSGIRPDDLAAHVLRALAERSPGLDPAAVDDVFFGDANGAGEDNRNVARMAALLAGWPTSVPGVTLNRLCGSGMESVIAANRAIAVGDASLAVAGGVESMSRAPWVLPKPAQGFPTGHETLYSTTLGWRMVNPAMPEQWTVSLGESTEQVAATYGISRAEQDAFALRSHERAARAWAEGVFDAEITQIPGAELERDESIRETSAEKLAALKPAFRPDGTITAGNASPLWDGAAALLIGDAAAAERVGREPLARIVSRGVAAVDPDVFGIGPVQAAEIALRRAGIGWDDLSVVELNEAFAAQSLACLKLWPDLDPEIVNPNGGAIAIGHPLGASGARIVGTLAHELHRRGGGWGLAAICIGVGQGLAVVLHR
B2: enzyme N488A (Limosilactobacillus reuteri, UniProt Q8GP32); chain SADTNIENNDSSTVQVTTGDNDIAVKSVTLGSGQVSAASDTTIRTSANANSASSAANTQNSNSQVASSAAITSSTSSAASSNNTDSKAAQENTNTAKNDDTQKAAPANESSEAKNEPAVNVNDSSAAKNDDQQSSKKNTTAKLNKDAENVVKKAGIDPNSLTDDQIKALNKMNFSKAAKSGTQMTYNDFQKIADTLIKQDGRYTVPFFKASEIKNMPAATTKDAQTNTIEPLDVWDSWPVQDVRTGQVANWNGYQLVIAMMGIPNQNDNHIYLLYNKYGDNELSHWKNVGPIFGYNSTAVSQEWSGSAVLNSDNSIQLFYTRVDTSDNNTNHQKIASATLYLTDNNGNVSLAQVANDHIVFEGDGYYYQTYDQWKATNKGADNIAMRDAHVIEDDNGDRYLVFEASTGLENYQGEDQIYNWLNYGGDDAFNIKSLFRILSNDDIKSRATWAAAAIGILKLNKDEKNPKVAELYSPLISAPMVSDEIERPNVVKLGNKYYLFAATRLNRGSNDDAWMNANYAVGDNVAMVGYVADSLTGSYKPLNDSGVVLTASVPANWRTATYSYYAVPVAGKDDQVLVTSYMTNRNGVAGKGMDSTWAPSFLLQINPDNTTTVLAKMTNQGDWIWDDSSENLDMIGDLDSAALPGERDKPVDWDLIGYGLKP
B3: Lxyl-p1-1 V91S (Lentinula edodes, UniProt G8GLN9); chain YFSGLGLGSERSIFRRDLNSTGDESNSTQWPAPLANGGKSWASAFKKAKSTVAEMTVEELANITSGVIGLCSGVTGAVTRLGIPELCLQDGPIGPRGVHGSSQFPAGLTVAATWDRTLMYARARGMGQEFHDQGVHIALAPVTGGPLGRTPLNGRGWEGTFADPYACGEASYQSVKGLTDAGVATVSKHWIAYEQETSRNLYIEFDGVSQADIQLPISSNVDDLTMHELYMWSFAEAVRAGTNHIMCSYNRINNTHSCNNAKGLNQLLKTELNFQGGVVSDWGGQWDSVLSAENGLDVGMPGEGFLGELGDFWGTTLADLINNGTVSEDLVRDKVVRLLTGYYYLGQDINPPPPFVYNTIGAPTLNATSGYRNVRKPGTAELIKEIGSASVTLLKNTGSLPLKHPQRIAVLGNDATYNVLGPNACGLANSACDIDNLNGTLTTGGGSGSALSPYTITPLEALQKRAIEDNAEIAAVVANSNTTTGAEDAIAALLPDADVTFVFLNRYSEEGADAPDFSLGGDGDNLMDLAVTYSSNVVVVIHTTGVVDIEKWADNPNVTAILVAYLPGQEAGNSLVPVLYGDVAPSGKLPWTWGKSIDDYVPNGVVYTDAYSPQSNFTEGVFIDYRWFDKMGITPRYEFGFGLSYTTFTYSNLIVDHGRWAKDYSSVMETAEPFAEWDGTNSLYDVIFTVFATITNTGNLTGSEVAQLYISIPGDNQPVRQLRGFDKIKDLPVGDSAVVTFPIRRKDVSSWSVVDQLWYVPNGDFLISVGGSSRDLPLNTTWTP
B4: protein (Prochlorococcus marinus, UniProt Q7V6D4); chain MPTLEMPVAAVLDSTVGSSEALPDFTSDRYKDAYSRINAIVIEGEQEAHDNYIAIGTLLPDHVEELKRLAKMEMRHKKGFTACGKNLGVEADMDFAREFFAPLRDNFQTALGQGKTPTCLLIQALLIEAFAISAYHTYIPVSDPFARKITEGVVKDEYTHLNYGEAWLKANLESCREELLEANRENLPLIRRMLDQVAGDAAVLQMDKEDLIEDFLIAYQESLTEIGFNTREITRMAAAALVS
B5: enzyme R237A (Acetivibrio thermocellus, UniProt A3DJ38); chain MKLTIPELSLVVLIGSSGSGKSTFAKKHFKPTEVISSDFCRGLVSDDENDQTVTGAAFDVLHYIVSKRLQLGKLTVVDATNVQESARKPLIEIAKDYHCFPVAVVFNLPEKVCQERNKNRTDRQVEEYVIRKHTQQLKKSIKGLQREGFRYVYILNSPEEVEEVVFERQPLWNNKKDEHGPFDIIGDIHGCYDELKMLLEKLGYLIEEVEGGVGSGKYRVTHPEGRKVLFLGDLVDAGPKITEVLKLVMGMVKSGIALCVPGNHDVKLLRKLNGRDVQITHGLDRTLEQLAKEPQEFIEEVKAFIDGLVSHYVLDDGKLVVAHAGMKEEFQGRGSGKVREFALYGETTGETDEYGLPVRYDWASDYRGKALVVYGHTPQAEVLKVNNTINIDTGCVFGGKLTAYRYPEREIVDVKALKTYYEPAKPFLPKEDMAERFEARTDNDILDINDVLGKKIITTRLMSSITIHEENSIAALEVMSRFAADPHWLIYLPPTMSPCETSKKEGMLEHPIEAFEYFRTRGVGKVVCEQKHMGSRAVVIVCKDSQVAEKRFGVLDGTAGICYTRTGRHFFDDMQLEAELIDRVRKVLDKSGFWGDFNTDWVCLDCELMPWSAKAQKLLEEQYSAVGISGRVVLDEAVKLLKQASLNKTVSFDVSRQTSGKNADINELLQRFTERSEMMQKYVEAYRKYCWPVNSIDDLKLAPFHILATEGKVHSDKNHIWHMDTIAKYCTQDDSLIMATNHILVDVTDAESVDKGIKWWEDLTASGGEGMVVKPYDFIVKNGRELLQPAVKCRGREYLRIIYGPEYTMDENIERLRNRAVGKKRSLALREFSLGMEALERFVRNEPLYRVHECVFGVLALESEPVDPRL
UniProt P30986, sequence (whole entry, looked up): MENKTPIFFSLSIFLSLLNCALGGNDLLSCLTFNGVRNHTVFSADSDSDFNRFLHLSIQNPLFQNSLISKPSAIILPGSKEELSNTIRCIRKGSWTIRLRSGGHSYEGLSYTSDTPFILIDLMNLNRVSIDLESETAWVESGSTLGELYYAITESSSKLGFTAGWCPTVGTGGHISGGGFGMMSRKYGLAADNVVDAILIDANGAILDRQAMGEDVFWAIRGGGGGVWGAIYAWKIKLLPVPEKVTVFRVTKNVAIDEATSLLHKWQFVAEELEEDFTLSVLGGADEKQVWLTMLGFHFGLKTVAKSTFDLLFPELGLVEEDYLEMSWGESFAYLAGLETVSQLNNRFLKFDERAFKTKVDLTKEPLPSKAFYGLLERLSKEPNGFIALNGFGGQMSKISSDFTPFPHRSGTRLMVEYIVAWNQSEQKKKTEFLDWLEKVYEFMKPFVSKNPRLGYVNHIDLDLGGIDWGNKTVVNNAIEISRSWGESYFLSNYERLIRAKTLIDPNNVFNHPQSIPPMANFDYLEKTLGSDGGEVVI
UniProt Q6XEC0, sequence (whole entry, looked up): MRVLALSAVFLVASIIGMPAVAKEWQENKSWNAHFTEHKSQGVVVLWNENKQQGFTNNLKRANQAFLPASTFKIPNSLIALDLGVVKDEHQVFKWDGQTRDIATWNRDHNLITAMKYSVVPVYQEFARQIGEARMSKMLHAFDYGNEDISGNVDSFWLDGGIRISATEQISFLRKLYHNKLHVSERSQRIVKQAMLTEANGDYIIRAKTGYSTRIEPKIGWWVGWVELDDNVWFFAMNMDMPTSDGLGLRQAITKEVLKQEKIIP

Molecule | substrate | setting | kcat
B1 (enzyme N249W) | CC(C)(COP(=O)(O)OP(=O)(O)OC[C@H]1O[C@@H](n2cnc3c(N)ncnc32)[C@H](O)[C@@H]1OP(=O)(O)O)[C@@H](O)C(=O)NCCC(=O)NCCSC(=O)CCCC(=O)O | pH 7.4, 37 °C | 0.00333 ± 0.000333 s⁻¹
Cj1427c (Campylobacter jejuni, UniProt Q0P8I7) | O=C(O)CCC(=O)C(=O)O | pH 7.4, 30 °C, apparent | 0.55 ± 0.01 s⁻¹
B2 (enzyme N488A) | OC[C@H]1O[C@@](CO)(O[C@H]2O[C@H](CO)[C@@H](O)[C@H](O)[C@H]2O)[C@@H](O)[C@@H]1O | pH 5.5, 50 °C, apparent | 370 s⁻¹ and 410 s⁻¹
B3 (Lxyl-p1-1 V91S) | [H][C@]12[C@H](OC(=O)c3ccccc3)[C@]3(O)C[C@H](OC(=O)[C@H](O)[C@@H](NC(=O)c4ccccc4)c4ccccc4)C(C)=C([C@@H](O)C(=O)[C@]1(C)[C@@H](O[C@@H]1OC[C@@H](O)[C@H](O)[C@H]1O)C[C@@]1([H])OC[C@@]21OC(C)=O)C3(C)C |  | 4.75 ± 0.35 s⁻¹
BBE1 (Eschscholzia californica, UniProt P30986) | COc1ccc(C[C@H]2c3cc(O)c(OC)cc3CCN2C)cc1O | pH 9, 25 °C, apparent | 5.4 ± 0.3 s⁻¹
B4 (protein) | CCCC=O | pH 7.2, 37 °C, apparent, micro-aerobic | 5.17e-05 ± 1.67e-06 s⁻¹
nitrilase (Rhodococcus rhodochrous, UniProt A4LA85) | N#CCCCCC#N | pH 7.5, 25 °C | 0.00046 ± 4e-05 s⁻¹
ω-transaminase A60V/E38Q/I154V/M128F/P9A/S87N/W58G (Pseudomonas jessenii) | O=C1CCc2ccccc21 | pH 8, 56 °C, apparent, added: isopropylamine 1 M, PLP 0.05 mM | 1.2 ± 0.02 s⁻¹
rfbC (Campylobacter jejuni, UniProt Q0P8I4) | Nc1nc2c(ncn2[C@@H]2O[C@H](COP(=O)(O)OP(=O)(O)O[C@H]3O[C@H]([C@H](O)CO)C(=O)[C@H](O)[C@@H]3O)[C@@H](O)[C@H]2O)c(=O)[nH]1 | pH 7.5, 30 °C | 3.5 ± 0.2 s⁻¹
B5 (enzyme R237A) | Nc1ncnc2c1ncn2[C@@H]1O[C@H](CO)[C@H]2OP(=O)(O)O[C@H]21 | pH 7.5, 45 °C | 8.55 ± 0.0167 s⁻¹
OXA-48 (Klebsiella pneumoniae, UniProt Q6XEC0) | CC(=O)OCC1=C(C(=O)O)N2C(=O)[C@@H](NC(=O)Cc3cccs3)[C@H]2SC1 | pH 7.2, 30 °C | 2.8 ± 0.1 s⁻¹

Excerpt of the above:
Molecule | substrate | setting | kcat
B3 (Lxyl-p1-1 V91S) | [H][C@]12[C@H](OC(=O)c3ccccc3)[C@]3(O)C[C@H](OC(=O)[C@H](O)[C@@H](NC(=O)c4ccccc4)c4ccccc4)C(C)=C([C@@H](O)C(=O)[C@]1(C)[C@@H](O[C@@H]1OC[C@@H](O)[C@H](O)[C@H]1O)C[C@@]1([H])OC[C@@]21OC(C)=O)C3(C)C |  | 4.75 ± 0.35 s⁻¹
